Published values pooled from the literature.
Every numbered part comes from another study and shows a few of its results, in no order. Positions count from the first letter of the parent shown.

Block 1 — technique: universal PBM; form: double-stranded DNA, one strand shown; matrix: in vitro; concentration: 600 nM; direction: higher = stronger binding
Target: Sal-like protein 4, full length isoform A (SALL4, Homo sapiens, UniProt Q9UJQ4, residues 1-1053)
Chain of UniProt Q9UJQ4 (whole entry, looked up): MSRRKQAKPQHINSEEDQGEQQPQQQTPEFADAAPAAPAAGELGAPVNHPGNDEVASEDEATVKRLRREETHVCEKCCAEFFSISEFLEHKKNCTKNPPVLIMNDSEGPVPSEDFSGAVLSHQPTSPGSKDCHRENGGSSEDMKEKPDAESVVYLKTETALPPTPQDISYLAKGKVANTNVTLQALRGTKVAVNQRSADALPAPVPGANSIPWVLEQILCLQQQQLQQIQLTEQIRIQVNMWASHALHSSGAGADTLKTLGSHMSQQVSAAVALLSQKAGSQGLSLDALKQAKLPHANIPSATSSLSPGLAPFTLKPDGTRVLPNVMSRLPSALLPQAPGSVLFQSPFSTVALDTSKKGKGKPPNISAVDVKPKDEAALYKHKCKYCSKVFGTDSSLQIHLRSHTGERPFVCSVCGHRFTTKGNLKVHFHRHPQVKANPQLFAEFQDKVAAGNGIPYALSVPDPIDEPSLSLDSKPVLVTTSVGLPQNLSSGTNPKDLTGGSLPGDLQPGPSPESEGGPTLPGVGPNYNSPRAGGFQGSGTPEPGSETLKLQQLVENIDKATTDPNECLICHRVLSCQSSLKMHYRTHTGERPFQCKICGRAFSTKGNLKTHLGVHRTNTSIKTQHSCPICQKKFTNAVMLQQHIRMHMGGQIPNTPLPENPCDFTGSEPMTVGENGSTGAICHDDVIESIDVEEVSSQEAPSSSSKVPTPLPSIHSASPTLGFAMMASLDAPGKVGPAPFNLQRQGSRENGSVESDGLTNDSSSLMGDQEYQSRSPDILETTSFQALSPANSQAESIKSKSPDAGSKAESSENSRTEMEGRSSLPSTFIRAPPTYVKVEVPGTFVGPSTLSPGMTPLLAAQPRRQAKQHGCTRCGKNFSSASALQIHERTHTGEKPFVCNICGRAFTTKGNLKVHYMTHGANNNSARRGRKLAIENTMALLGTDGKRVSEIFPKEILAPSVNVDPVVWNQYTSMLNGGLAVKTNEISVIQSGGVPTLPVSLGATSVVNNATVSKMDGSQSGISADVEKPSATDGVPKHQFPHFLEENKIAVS
Notes: 8-mer, flanks averaged, mean of replicates
Sequence	E-score
CAAGTCTA	0.167
GGTGGCAC	-0.336
GCAATGCA	-0.0789
AGAAGAAT	0.0753
CCGAATCG	-0.156
CAAAGCTC	-0.185
AGAAGTGC	-0.214
CGGCGCCG	-0.258
AATACTGA	0.188
ATTGTTTA	0.353
AGGATTTC	-0.0262
CCATAACA	0.273
ATTCCATG	0.0364
CTGACGTC	-0.0679
CGGGAGCC	-0.382
CCTACACC	0.004

Block 2 — technique: RNA Bind-n-Seq; form: RNA; matrix: in vitro; concentration: 365 nM; reference: no-protein control; direction: higher = stronger binding
Target: RNA binding protein fox-1 homolog 2, RRM domain, GST-SBP tag (RBFOX2, Homo sapiens, UniProt O43251-10, residues 100-194)
Notes: natural RNA segment, single round, ends assumed
Constant ends, left off below: GGGAGUUCUACAGUCCGACGAUC … UGGAAUUCUCGGGUGCCAA
Residues (chain): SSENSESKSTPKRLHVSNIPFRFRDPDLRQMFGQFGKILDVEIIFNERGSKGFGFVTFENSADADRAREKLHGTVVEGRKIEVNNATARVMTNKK
Sequence	RBNS enrichment (R)
GGAUAGUCAAGAAAAGGUUUAACUAGUUUUAGUAUCAGACUUUAAAAUUUCUUAAAGAUUUUGGUAAGAAAUAGAAGUCCACAUACAAGCAUUGAGGAAACUGAAAAAUC	7.34
UGAACACCGACAUCUUCAGUUUACUUGUGUCUGCAGUUCUGUGGACAGAACAAAGCCAUUCACAAGUGACCGACAGCACGUGCCGUGAGACGGGAGGUGGCUGCAGGAAG	0.689
UGUGAUGAAGCCUGCAGUCUGCACUGUGUUGCUGAGCACAUGGAUUUCACCACUGGAACACAGGUGUGCUGCUUGUUAGCAAGCAGAGCAAUAAAGAUGUGCUGGAUGUC	0.268
CCUGGCCUUCUAGGAAUGGAGGAGCCAGGCCCCACCCCUUCCCUAUAGGAACAGCCCAGCACAGGUAUUUCAGGUGUGAAAGAAUCAGUAGGACCAGGCCACCGCUAGUG	0.247
AAAACGUACUCAGCAAAAAAAAAAAAAAAAAAAAAAAAAAAAAAAAAUUAACACAGGAUAAUUAGUGUCACCGUUUAUUCCAAACUAGGCCAGCUGGGUUUCCAGCUUUU	2.1
UACUAAGACACCAAAUAGUGUCCAUGUAAGAUGGCAACUGCAUUAAAAAAAAAUCAGGAAAAACAAAUGUUUGGUUAUUGUUUUGUUUUAUCUUGUCUGUUAGAGAUGCU	3.49
UAUGGAAUUUUCAUUGAGUAUGUUUAAAUUAUUGGCUUGUCUACUAAUACACAUCUGCUUCAAAAUGAACAUAUUUCAUAAAAUUGGCAUCAAUUUUAAUGACGCUCCUG	0.272
UUAUGGAAGCACUCUACAAUGAACAGUUGAAUUUUAUGUCUAUUCUUUUUUCCUAUUUUAAAAGUUCUAGUGGUAACACAAACUGUAAAUUUGAGUCAGAAUGUUUGGAG	0.408

Block 3 — technique: protein binding microarray; form: double-stranded DNA, one strand shown; matrix: in vitro; concentration: not given; reference: not given; direction: higher = stronger binding
Target: Histone acetyltransferase KAT6A, both winged helices, GST fusion (KAT6A, Homo sapiens, UniProt Q92794, residues 1-181)
Notes: 8-mer, flanks averaged, mean of 2 arrays, mostly near background
Residues (chain): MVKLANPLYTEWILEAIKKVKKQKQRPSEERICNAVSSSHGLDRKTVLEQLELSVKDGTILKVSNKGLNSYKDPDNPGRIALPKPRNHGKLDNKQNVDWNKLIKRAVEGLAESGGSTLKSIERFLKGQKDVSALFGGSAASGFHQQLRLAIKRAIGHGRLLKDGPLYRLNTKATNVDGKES
Sequence	E-score
ATAGTATC	0.0508
CATATCAC	-0.0925
CCGCAAGA	0.133
GTGACACA	0.13
CAACCCTG	-0.111
CATGTCAC	0.0958
ATATGATA	0.0238
ACACTCAG	-0.103
AAGTGCGT	0.0197
ATTTCACA	-0.126
AGTCCTCG	-0.247
ACTGCTGG	-0.207
AGACCAAT	-0.146
CGGTCCGA	0.235
CGATAGTC	0.122
CAAGCAAA	-0.246
AAGCATGG	-0.132

Block 4 — target: CCNB2, cyclin fold, Cln2 fusion (human); technique: yeast growth competition, sequencing; matrix: yeast; notes: weak parent motif; reference: not given; direction: higher = stronger binding
Starting sequence: CDC6 docking peptide (human); TLKGRRLVFDNQL; partner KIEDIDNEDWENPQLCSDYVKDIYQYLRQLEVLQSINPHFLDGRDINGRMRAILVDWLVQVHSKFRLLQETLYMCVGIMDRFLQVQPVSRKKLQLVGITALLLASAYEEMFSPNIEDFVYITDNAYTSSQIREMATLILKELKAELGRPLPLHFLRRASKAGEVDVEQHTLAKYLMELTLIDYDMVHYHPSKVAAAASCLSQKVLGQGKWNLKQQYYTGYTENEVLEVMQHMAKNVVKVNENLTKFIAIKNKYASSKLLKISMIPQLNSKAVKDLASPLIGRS
Variant	normalised enrichment score
L13P	0.536
R5N	-0.282
R5H	-0.0571
L2V	0.151
R5Y	-0.0438
L13R	0.31
R6C	-0.103
V8S	0.0722
V8N	0.666
T1E	0.0163
Q12R	0.424
R5I	-0.341
Q12M	0.107
K3G	-0.00342
G4D	0.226
Q12H	0.396

Block 5 — technique: RNA Bind-n-Seq; form: RNA; matrix: in vitro; concentration: 1 µM; notes: whole 134-nt RNA, ends assumed; with: 150 mM KCl; reference: input library; direction: higher = stronger binding
Target: Ras GTPase-activating protein-binding protein 1, RRM domain (G3BP1, Homo sapiens, UniProt Q13283)
Chain of UniProt Q13283 (whole entry, looked up): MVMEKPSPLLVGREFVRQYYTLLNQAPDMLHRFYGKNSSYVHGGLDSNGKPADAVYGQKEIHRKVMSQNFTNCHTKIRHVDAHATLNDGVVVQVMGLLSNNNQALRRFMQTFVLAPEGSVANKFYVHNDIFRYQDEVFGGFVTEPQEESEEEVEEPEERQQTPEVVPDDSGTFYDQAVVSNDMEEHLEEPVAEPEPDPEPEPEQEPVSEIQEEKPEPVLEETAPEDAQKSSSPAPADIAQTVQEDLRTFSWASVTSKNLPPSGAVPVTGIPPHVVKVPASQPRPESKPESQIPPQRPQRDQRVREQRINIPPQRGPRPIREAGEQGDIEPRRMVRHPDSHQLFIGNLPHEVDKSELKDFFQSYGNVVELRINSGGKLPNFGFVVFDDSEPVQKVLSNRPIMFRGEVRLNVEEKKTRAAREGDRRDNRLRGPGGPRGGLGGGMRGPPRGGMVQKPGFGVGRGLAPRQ
Constant ends, left off below: GGGAGUUCUACAGUCCGACGAUC … UGGAAUUCUCGGGUGUCAAGG
Sequence	log2 enrichment
UGGCCCUGGUGGCAUGCGGGGAGGAAGAGGUGGCCUCAUGGAUCGUGGUGGUCCCGGUGGAAUGUUCAGAGGUGGCCGUGGUGCAGACAG	0.733
CAAGUCCUGUGCUACACAUCGUAUGUACCGAAUCGGUUUUUGGUGGUUUUUUUGGAAAGUAUUAUGUUACGCCGUUCGGAUCUGCACUUC	-0.265
GCAGGAAGUAAAAACAAAUGGAAAUGCUUCGGGUAGUGGCAGGGGUGGGGGUUGCUAAGGAAAGGGUGGGAUGGGAGUGGGUAAAGAGUU	0.939
CAAGUCCUGUGCUACACAUCGUAUGUACCGAAUCAAACCCAAAUUUAAAUUUAAAAAAGUAUUAUGUUACGCCGUUCGGAUCUGCACUUC	-0.285
CUCAAGUCCUGUGCUACACAUCGUAUGUACCGAAUCGGUGGAAAAAAAGGAGGAAAGUAUUAUGUUACGCCGUUCGGAUCUGCACUUCCA	-0.145
GCAGGAAGUAAAAACAAAUGGAAAUGCUUCGGAUAGUGGCAGGGGUGGGGGAAACUAAGGAAAGGGUGGGAUGGGAGUGGGUAAAGAGUU	1.52
UGAUCAGCAAAGCCAAGAUGAGCCUUUGAGAAGCAGAAAAGUGUUUGUGGGGCGCUGUACAGAGGACAUGACUGAGGAUGAGCUGCGGGA	-0.0342
UCCUCAAGUCCUGUGCUACACAUCGUAUGUACCGAAUCGGGGAGGAGGAGGGAAAGUAUUAUGUUACGCCGUUCGGAUCUGCACUUCCAG	-0.191
UUGAUUGAUAUUACAGGCAAGAACCAGGAUGAAUGUGUGAUUGCUUUGCAUGACUGCAAUGGAGAUGUCAACAGAGCUAUCAAUGUUCUU	-0.399

Block 6 — technique: DHFR PCA, dose-response; matrix: yeast; notes: Hill fit, mean, not affinity; with: (+)-ABA, dose series; direction: lower = more sensitive
Target: ABI1, truncated, D143A, DHFR fusion (Arabidopsis thaliana, UniProt P49597)
Starting sequence: PYL1, truncated, DHFR fusion (Arabidopsis thaliana, UniProt Q8VZS8); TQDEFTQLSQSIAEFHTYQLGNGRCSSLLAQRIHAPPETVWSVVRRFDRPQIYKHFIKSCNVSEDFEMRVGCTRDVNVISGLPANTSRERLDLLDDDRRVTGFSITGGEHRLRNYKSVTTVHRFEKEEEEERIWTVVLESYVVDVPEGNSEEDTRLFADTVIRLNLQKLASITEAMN
Variant	ABA EC50 [µM]
S59N	3.07
S26I	41.3
K168S	0.734
G107H	42.2
D95Y	77.3
N177L	3.95
I105G	533
V100G	449
G23S	6.68
I12Q	108
S59R	7.38

Further values, each from its own experiment
Molecule	target	test	system	conditions	how to read	endpoint	result
PhoQ, residues 284 288 289 292 302 303 SLANKL	PhoP, residues 12 14 15 18 19 LWHSL (Escherichia coli, UniProt P23836)	Sort-seq, item: YFP reporter	E. coli	PhoQ-PhoP variant library, with: 10 µM Mg2+	reference: high Mg2+ state, higher = stronger signaling	fold induction	5.95

For quick reference, copied from above (block 4):
Variant	normalised enrichment score
R5Y	-0.0438
L13R	0.31
R6C	-0.103
V8S	0.0722
V8N	0.666
T1E	0.0163
Q12R	0.424
